Results collected from several papers.
Compare with care: the assays were run in different laboratories.
Cell line: DU-145

CC/C=C\C/C=C\C/C=C\C/C=C\C/C=C\C/C=C\CCC(=O)Nc1ccn(C2OC(CO)C(O)C2(F)F)c(=O)n1 (stereo not shown)
TGI (NCI60 screen): 12.5 µM

C[N+]1(CC(=O)OC2CCCCCCCCCCC2)CCCCC1
ED50 (cell viability, CellTiter Blue; 96 h): 6.2 µM

COc1cc(CNC(=O)C[C@H](C)CCC=C(C)C)ccc1OCc1cn(-c2ccccc2)nn1
growth percent (SRB; 10 µM, 48 h): 92.1%

CC(Cc1ccc(Cl)cc1)=C(c1ccc(Cl)cc1)c1ccc(OCCN(C)C)cc1
GI50 (cell growth or viability): 4.74 µM

COc1ccc(C2=Nn3c(NN=C4C(=O)N(Cc5ccccc5)c5ccc(Cl)cc54)nnc3SC2)cc1
inhibition (cell growth or viability, SRB; 10 µM): 19%

CC(=O)OC[C@H]1O[C@@H](Sc2sc(C(=O)c3ccc(Br)cc3)c(N)c2-c2nc3ccccc3s2)[C@H](OC(C)=O)[C@@H](OC(C)=O)[C@H]1OC(C)=O
growth (SRB; 10 µM, 48 h; relative to: untreated): 110%

COc1cc(CNC(=O)C[C@H](C)CCC=C(C)C)ccc1OCc1cn(-c2ccccc2F)nn1
growth percent (SRB; 10 µM, 48 h): 102%

Cc1ccc(C(C)C)cc1.O=C(N=P(c1ccccc1)(c1ccccc1)c1ccccc1)c1ccccn1.[Cl-].[Cl-].[Ru+2]
selectivity ratio (MTT; relative to: IC50 RPTC over IC50 DU-145): 9 fold

COc1cc(CNC(=O)C[C@H](C)CCC=C(C)C)ccc1O
growth percent (SRB; 10 µM, 48 h): 103%

CC(=O)OCC1(O)C(Nc2cccc(C(C)=O)c2)C(N)C(NC(=O)N(C)C)(C(C)OC(C)=O)C1(C)O (stereo not shown)
GI50 (cell growth or viability, SRB): 0.34 µM

CC(=O)OC[C@H]1O[C@@H](Sc2sc(C(=O)c3ccc(C)cc3)c(N)c2-c2nc3ccccc3s2)[C@H](OC(C)=O)[C@@H](OC(C)=O)[C@H]1OC(C)=O
growth (SRB; 10 µM, 48 h; relative to: untreated): 107%

COc1cc(CNC(=O)C[C@H](C)CCC=C(C)C)ccc1OCc1cn(-c2ccccc2Cl)nn1
growth percent (SRB; 10 µM, 48 h): 90.1%

CC1=CCC23OC2(C)CCC2C(CN(C)C)C(=O)OC2C13.Cl (stereo not shown)
inhibition (cell growth or viability, SRB; 8.3 µM): 57.3%

Some of these lines once more:
COc1cc(CNC(=O)C[C@H](C)CCC=C(C)C)ccc1O
growth percent (SRB; 10 µM, 48 h): 103%
